Assay results of several laboratories.
Each line is one published result; not all experiments were run side by side. Several values in a cell are separate wells, animals, samples, runs or records. Numbers after ± are the reported error.
SCRIB PDZ3 domain: Protein scribble homolog, PDZ3 domain (SCRIB, Homo sapiens, UniProt Q14160)
UniProt Q14160, sequence (whole entry, looked up): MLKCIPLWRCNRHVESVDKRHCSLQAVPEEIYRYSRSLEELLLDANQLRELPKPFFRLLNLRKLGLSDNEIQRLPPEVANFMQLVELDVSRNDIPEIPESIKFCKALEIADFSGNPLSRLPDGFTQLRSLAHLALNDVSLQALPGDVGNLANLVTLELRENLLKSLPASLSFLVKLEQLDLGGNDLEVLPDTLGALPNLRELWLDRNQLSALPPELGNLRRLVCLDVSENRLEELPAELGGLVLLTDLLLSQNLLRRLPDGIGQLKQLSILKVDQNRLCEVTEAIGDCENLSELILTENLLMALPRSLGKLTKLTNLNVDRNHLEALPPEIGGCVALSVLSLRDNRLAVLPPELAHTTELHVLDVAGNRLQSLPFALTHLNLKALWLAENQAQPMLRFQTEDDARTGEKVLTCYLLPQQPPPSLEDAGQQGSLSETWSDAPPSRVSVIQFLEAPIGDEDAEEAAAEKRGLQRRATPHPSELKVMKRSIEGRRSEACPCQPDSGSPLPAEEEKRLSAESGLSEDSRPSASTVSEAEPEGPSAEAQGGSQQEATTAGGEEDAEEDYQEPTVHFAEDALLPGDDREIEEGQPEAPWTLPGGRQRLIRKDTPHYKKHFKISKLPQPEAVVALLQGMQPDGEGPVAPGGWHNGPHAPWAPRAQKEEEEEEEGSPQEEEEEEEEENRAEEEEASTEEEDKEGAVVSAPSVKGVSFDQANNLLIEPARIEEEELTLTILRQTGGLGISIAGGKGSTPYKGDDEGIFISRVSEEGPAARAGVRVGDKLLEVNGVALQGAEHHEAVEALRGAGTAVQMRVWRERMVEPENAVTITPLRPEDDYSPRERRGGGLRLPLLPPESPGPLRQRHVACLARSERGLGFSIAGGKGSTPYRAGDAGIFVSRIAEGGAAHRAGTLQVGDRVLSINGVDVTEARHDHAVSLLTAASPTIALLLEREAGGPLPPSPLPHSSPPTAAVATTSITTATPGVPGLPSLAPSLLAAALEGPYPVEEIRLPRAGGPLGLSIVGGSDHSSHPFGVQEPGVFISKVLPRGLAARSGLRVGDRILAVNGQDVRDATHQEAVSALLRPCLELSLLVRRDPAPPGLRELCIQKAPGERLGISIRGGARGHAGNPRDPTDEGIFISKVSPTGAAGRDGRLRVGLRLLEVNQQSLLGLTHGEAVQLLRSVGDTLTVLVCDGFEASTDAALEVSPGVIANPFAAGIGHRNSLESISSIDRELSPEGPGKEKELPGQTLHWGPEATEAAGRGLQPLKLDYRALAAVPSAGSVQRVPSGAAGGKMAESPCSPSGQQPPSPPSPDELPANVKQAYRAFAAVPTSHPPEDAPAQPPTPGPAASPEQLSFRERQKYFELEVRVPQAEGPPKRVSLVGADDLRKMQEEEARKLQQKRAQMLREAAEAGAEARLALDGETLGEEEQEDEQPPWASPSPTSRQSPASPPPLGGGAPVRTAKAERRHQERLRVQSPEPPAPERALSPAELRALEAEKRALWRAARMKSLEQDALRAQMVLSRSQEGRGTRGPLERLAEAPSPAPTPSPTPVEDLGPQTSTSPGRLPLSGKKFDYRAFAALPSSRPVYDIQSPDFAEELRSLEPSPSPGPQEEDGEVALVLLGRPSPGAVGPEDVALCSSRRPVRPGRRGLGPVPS
Methyl-accepting chemotaxis protein McpA ligand-binding domain: Methyl-accepting chemotaxis protein McpA, ligand-binding domain (Bacillus velezensis, UniProt A7Z835)
HDAC6 ZnF-UBD domain: Protein deacetylase HDAC6, ZnF-UBD domain (HDAC6, Homo sapiens, UniProt Q9UBN7)
UniProt Q9UBN7, sequence (whole entry, looked up): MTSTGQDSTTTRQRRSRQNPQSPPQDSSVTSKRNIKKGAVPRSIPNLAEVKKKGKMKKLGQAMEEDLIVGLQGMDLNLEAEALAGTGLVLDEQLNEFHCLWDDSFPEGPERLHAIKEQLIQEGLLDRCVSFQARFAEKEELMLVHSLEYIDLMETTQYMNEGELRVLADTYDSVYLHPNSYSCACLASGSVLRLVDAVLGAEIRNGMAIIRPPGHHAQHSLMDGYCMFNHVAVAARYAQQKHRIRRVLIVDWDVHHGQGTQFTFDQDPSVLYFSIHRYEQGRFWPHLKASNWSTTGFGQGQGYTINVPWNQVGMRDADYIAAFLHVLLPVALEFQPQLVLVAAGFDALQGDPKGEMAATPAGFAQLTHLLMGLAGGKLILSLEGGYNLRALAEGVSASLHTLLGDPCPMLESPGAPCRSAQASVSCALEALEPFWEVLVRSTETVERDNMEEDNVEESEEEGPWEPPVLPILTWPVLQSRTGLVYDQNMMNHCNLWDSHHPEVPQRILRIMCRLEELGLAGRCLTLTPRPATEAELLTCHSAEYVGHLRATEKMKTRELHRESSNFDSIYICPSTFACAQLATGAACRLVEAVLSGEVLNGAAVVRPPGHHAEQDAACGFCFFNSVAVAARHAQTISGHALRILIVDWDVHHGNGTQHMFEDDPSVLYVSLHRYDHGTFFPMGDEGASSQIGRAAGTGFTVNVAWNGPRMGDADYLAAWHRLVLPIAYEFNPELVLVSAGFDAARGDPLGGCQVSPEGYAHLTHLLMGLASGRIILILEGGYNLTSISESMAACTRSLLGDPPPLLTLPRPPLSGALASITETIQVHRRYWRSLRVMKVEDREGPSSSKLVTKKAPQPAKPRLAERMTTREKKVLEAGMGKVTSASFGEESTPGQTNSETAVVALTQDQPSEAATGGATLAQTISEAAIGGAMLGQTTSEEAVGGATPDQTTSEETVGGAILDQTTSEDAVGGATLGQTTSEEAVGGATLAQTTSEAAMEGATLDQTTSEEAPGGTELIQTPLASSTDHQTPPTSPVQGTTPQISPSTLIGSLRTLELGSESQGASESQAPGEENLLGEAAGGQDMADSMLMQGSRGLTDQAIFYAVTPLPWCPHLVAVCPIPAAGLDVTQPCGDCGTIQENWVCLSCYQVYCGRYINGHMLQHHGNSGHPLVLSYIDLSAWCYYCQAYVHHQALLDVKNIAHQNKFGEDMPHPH
SMARCA2: SWI/SNF-related matrix-associated actin-dependent regulator of chromatin subfamily A member 2 (SMARCA2, Homo sapiens, UniProt P51531)
USP13 ZnF-UBD domain: Ubiquitin carboxyl-terminal hydrolase 13, ZnF-UBD domain (USP13, Homo sapiens, UniProt Q92995)
UniProt Q92995, sequence (whole entry, looked up): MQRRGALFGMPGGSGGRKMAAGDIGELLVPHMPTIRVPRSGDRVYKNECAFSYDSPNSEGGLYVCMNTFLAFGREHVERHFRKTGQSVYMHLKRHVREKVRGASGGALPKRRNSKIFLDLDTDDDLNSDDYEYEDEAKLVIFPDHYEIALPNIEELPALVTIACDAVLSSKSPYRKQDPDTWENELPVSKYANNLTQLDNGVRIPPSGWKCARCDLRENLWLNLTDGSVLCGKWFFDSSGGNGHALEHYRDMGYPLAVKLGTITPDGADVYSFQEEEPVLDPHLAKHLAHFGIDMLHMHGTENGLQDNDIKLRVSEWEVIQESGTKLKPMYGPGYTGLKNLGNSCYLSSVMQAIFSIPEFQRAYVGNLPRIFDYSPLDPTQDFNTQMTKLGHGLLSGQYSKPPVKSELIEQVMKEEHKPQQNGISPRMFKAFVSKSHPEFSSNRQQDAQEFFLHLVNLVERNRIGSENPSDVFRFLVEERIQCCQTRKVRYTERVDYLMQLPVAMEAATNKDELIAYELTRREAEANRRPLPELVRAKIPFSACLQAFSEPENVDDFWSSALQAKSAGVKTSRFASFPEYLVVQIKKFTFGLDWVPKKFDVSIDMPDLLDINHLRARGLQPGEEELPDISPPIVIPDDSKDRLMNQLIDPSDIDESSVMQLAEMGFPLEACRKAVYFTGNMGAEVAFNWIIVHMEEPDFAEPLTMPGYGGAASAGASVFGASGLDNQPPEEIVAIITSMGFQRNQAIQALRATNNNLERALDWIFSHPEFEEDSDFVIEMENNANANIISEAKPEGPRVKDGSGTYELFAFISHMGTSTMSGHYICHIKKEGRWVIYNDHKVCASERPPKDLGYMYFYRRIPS
LYZ: Lysozyme C (LYZ, Gallus gallus, UniProt P00698)
UniProt P00698, sequence (whole entry, looked up): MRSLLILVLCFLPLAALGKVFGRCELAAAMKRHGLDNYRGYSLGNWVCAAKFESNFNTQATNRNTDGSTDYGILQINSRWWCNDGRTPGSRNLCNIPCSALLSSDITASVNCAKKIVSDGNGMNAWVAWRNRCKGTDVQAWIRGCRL
uncharacterized protein: uncharacterized protein (Corynebacterium lipophiloflavum, UniProt C0XPZ5)
HDAC6: Protein deacetylase HDAC6 (HDAC6, Homo sapiens, UniProt Q9UBN7)
yxeB: Iron(3+)-hydroxamate-binding protein YxeB (yxeB, Bacillus subtilis, UniProt P54941)
UniProt P54941, sequence (whole entry, looked up): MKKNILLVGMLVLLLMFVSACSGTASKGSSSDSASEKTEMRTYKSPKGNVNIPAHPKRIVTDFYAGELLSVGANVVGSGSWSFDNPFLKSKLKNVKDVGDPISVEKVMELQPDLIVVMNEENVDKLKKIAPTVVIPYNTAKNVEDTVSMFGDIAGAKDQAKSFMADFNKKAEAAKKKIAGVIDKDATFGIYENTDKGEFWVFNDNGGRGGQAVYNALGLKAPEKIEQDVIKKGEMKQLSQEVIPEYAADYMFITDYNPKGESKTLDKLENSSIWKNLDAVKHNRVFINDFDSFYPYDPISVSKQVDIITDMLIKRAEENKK
gsk: Guanosine-inosine kinase (gsk, Escherichia coli, UniProt P0AEW6)
UniProt Q16774, sequence (whole entry, unmodified, looked up): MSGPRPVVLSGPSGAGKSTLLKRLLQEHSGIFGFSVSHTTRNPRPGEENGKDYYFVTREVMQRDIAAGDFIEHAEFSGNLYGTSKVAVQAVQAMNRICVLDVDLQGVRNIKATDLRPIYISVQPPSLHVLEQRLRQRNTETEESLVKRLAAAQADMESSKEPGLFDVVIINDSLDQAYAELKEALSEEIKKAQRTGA
UniProt P0AEW6, sequence (whole entry, looked up): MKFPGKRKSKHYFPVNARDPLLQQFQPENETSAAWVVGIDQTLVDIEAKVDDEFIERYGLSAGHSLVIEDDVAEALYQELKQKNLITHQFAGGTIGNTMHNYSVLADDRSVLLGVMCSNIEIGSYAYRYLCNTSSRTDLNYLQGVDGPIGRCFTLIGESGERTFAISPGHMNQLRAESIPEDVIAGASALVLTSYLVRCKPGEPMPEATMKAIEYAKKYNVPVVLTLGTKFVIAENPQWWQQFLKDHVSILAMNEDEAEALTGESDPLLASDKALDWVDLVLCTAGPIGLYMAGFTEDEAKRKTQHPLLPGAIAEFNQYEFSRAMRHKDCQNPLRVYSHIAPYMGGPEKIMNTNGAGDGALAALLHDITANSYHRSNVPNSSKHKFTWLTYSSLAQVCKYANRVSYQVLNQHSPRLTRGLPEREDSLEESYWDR
UniProt P02754, sequence (whole entry, looked up): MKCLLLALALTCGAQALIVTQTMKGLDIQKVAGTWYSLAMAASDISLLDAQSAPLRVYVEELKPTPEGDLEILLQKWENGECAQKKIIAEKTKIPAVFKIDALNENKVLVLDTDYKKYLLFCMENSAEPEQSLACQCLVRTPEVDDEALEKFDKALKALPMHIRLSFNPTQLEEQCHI

With `CC(C)C[C@H](NC(=O)[C@H](CCC(=O)O)NC(=O)[C@@H](NC(=O)[C@H](CC(=O)O)NC(=O)[C@H](CCCNC(=N)N)NC(=O)[C@H](Cc1ccc(O)cc1)NC(=O)[C@H](CCCNC(=N)N)NC(=O)[C@H](C)NC(=O)[C@H](CO)NC(=O)[C@@H](N)CCC(N)=O)[C@@H](C)O)C(=O)O` the Kd was 13.7 µM (SCRIB PDZ3 domain; binding, fluorescence polarization; solution; Scribble PDZ3 domain).
For `N[C@@H](CCC(=O)O)C(=O)O`, the Kd was 24.9 ± 2.14 µM (Methyl-accepting chemotaxis protein McpA ligand-binding domain; binding, biolayer interferometry; 25 °C, 1:1 binding model).
With `CN(C)C(=O)c1cc2cnc(Nc3ccc(C(=O)NCCCCCCOc4cccc5c4C(=O)N(C4CCC(=O)NC4=O)C5=O)cc3)nc2n1C1CCCC1` (stereo not drawn) the Kd was 0.0195 µM (Aurora kinase A, with N-Myc (AURKA, Homo sapiens, UniProt O14965, C290A/C393S); ternary complex binding, biolayer interferometry; steady-state).
`Nc1nc2c(ncn2[C@@H]2O[C@H](COP(=O)(O)O)[C@@H](O)[C@H]2O)c(=O)[nH]1` gave a Kd of 66 ± 1 µM (GUK1 (Homo sapiens, UniProt Q16774, R148A); binding, ITC; 25 °C, added: GMP).
With `NCCCCCNC(=O)c1ccc(NC(=O)c2ccc(CN(C(=O)c3ccc4c(c3)OCC(=O)N4)C3CC3)cc2)cc1` the Kd was 0.036 ± 0.021 µM (Histone-lysine N-methyltransferase NSD2, PWWP1 domain (NSD2, Homo sapiens, UniProt O96028); SPR single-cycle kinetics; pH 7.4, 20 °C, 0.5% DMSO).
The Kd of `CC1=C(/C=C/C(C)=C/C=C/C(C)=C/C=C/C=C(C)/C=C/C=C(C)/C=C/C2=C(C)CCCC2(C)C)C(C)(C)CCC1` is reported as 1.34 µM (Beta-lactoglobulin (LGB, Bos taurus, UniProt P02754); binding, fluorescence quenching; PBS; 30 min, 308 K).
With `O=C(O)Cc1cccnc1` the Kd was over 1000 µM (HDAC6 ZnF-UBD domain).
`NCCCCCCC#Cc1cc(N2C3CCC2CN(c2cc(-c4ccccc4O)nnc2N)C3)ccn1` gave a Kd of 0.017 ± 0.0021 µM (SMARCA2; binding, NanoBRET tracer displacement; permeabilized HEK293).
The Kd of `Cc1cc(Nc2cc3ncccc3c(N[C@@H]3C[C@H]4CC[C@@H](C3)N4CCC#N)n2)n[nH]1` is reported as 0.02 µM (NUAK2 (Homo sapiens, UniProt Q9H093); binding, KINOMEscan).
The Kd of `CC(C)C[C@H](NC(=O)[C@@H](NC(=O)[C@H](CC(N)=O)NC(=O)[C@@H](N)CCCNC(=N)N)[C@@H](C)O)C(=O)N[C@@H](Cc1ccc(O)cc1)C(=O)N[C@@H](Cc1ccccc1)C(=O)N[C@@H](CO)C(=O)N[C@H](C(=O)N[C@@H](CC(=O)O)C(=O)N[C@H](C(=O)O)C(C)C)[C@@H](C)O` is reported as 2.9 µM (SCRIB PDZ3 domain; binding, fluorescence polarization; solution; Scribble PDZ3 domain).
`NC(=O)[C@H]1CCCN1C(=O)CCC(=O)O` gave a Kd of over 1000 µM (USP13 ZnF-UBD domain).
For `CC(=O)N[C@H]1[C@H](O[C@H]2[C@H](O)[C@@H](NC(C)=O)C(O)O[C@@H]2CO)O[C@H](CO)[C@@H](O[C@@H]2O[C@H](CO)[C@@H](O)[C@H](O)[C@H]2NC(C)=O)[C@@H]1O` (stereo partly drawn), the Kd was 7.9 ± 0.2 µM (LYZ; binding, native nano-ESI MS; pH 7.4, emitter tip 500 nm).
`CCCCCCCCCCCCCCCC(=O)O` gave a Kd of 1.34 µM (uncharacterized protein; heme spectral shift, substrate, UV-visible spectral titration).
`CC(=O)N[C@H]1[C@H](O[C@H]2[C@H](O)[C@@H](NC(C)=O)C(O)O[C@@H]2CO)O[C@H](CO)[C@@H](O[C@@H]2O[C@H](CO)[C@@H](O)[C@H](O)[C@H]2NC(C)=O)[C@@H]1O` (stereo partly drawn) has a Kd of 15.5 ± 1.2 µM (LYZ; surface sampling native MS; 100-fold dilution).
The Kd of `Cn1cc(-c2ccc(S(=O)(=O)n3ccc(/C=C/C(=O)Nc4ccccc4N)c3)cc2)cn1` is reported as over 30.2 µM (HDAC6; inhibitor, competition pulldown; SW620 and MV4-11 lysate; 1 h).
`C[n+]1cn([C@@H]2O[C@H](COP(=O)(O)OP(=O)(O)OP(=O)(O)OC[C@H]3O[C@@H](n4cnc5c(=O)[nH]c(N)nc54)[C@H](O)[C@@H]3O)[C@@H](O)[C@H]2O)c2nc(N)[nH]c(=O)c21` gave a Kd of 4 ± 1 µM (EIF4E2 (Homo sapiens, UniProt O60573); isothermal titration calorimetry; pH 7.5, 20 °C).
`C=CC(=O)N1CCN(c2nc(OC[C@@H]3CCCN3C)nc3c(F)c(-c4nc(N)cc(C)c4C(F)(F)F)c(Cl)cc23)[C@@H](C)C1` gave a Kd of 0.197 ± 0.13 µM (GTPase KRas, GDP-bound (KRAS, Homo sapiens, UniProt P01116); microscale thermophoresis).
`O=C(O)CCN1C(=O)c2ccccc2S1(=O)=O` gave a Kd of over 1000 µM (USP13 ZnF-UBD domain).
With `Nc1ncnc2c1ncn2[C@@H]1O[C@H](COP(=O)(O)OP(=O)(O)OP(=O)(O)O)[C@@H](O)[C@H]1O` the Kd was 32 ± 19 µM (CKMT1A (Homo sapiens, UniProt P12532); microscale thermophoresis; pH 7.0, wild type, no substrate).
`O=C1CCC(=O)N(O)CCCCCNC(=O)CCC(=O)N(O)CCCCCNC(=O)CCC(=O)N(O)CCCCCN1` has a Kd of 0.105 ± 0.022 µM (yxeB; binding, Trp fluorescence quenching; pH 7.4, added: yxeB 100 nM).
`CCCCCCCCCCCCCC(=O)O` has a Kd of 2.15 µM (uncharacterized protein; heme spectral shift, substrate, UV-visible spectral titration).
The Kd of `NC(=O)c1cc(-n2c(CCC(=O)O)nc3ccccc32)cs1` is reported as over 1000 µM (HDAC6 ZnF-UBD domain).
With `C[N+](C)(C)Cc1cccc(N=Nc2cccc(C[N+](C)(C)C)c2)c1` the Kd was 4.3 µM (muscarinic receptor, Rana temporaria; antagonist, radioligand displacement; ventricle homogenate; 24 °C, in the dark, added: [3H]N-methylscopolamine).
`C[C@H](O)C(=O)O` gave a Kd of 95 ± 5 µM (L166H-Q481H zinc sensor protein; binding, fluorescence lifetime; added: 100 µM Zn2+).
With `Nc1nc2c(ncn2[C@@H]2O[C@H](COP(=O)(O)OP(=O)(O)O)[C@@H](OP(=O)(O)OP(=O)(O)O)[C@H]2O)c(=O)[nH]1` the Kd was 2.6 µM (cadA (Escherichia coli, UniProt P0A9H3); isothermal titration calorimetry).
With `O=C(O)Cc1c[nH]c2ccccc12` the Kd was 4.71 µM (Auxin-binding protein 1 (ERABP1, Arabidopsis thaliana, UniProt P33487); binding, microscale thermophoresis; Flag-tagged protein from protoplasts).
For `CC[C@H](C)[C@H](NC(=O)[C@H](CCCNC(=N)N)NC(=O)[C@H](CCCCN)NC(=O)[C@@H]1CCCN1C(=O)[C@@H](N)CO)C(=O)N[C@@H](C)C(=O)O`, the Kd was over 1000 µM (N-terminal Xaa-Pro-Lys N-methyltransferase 1 (Homo sapiens, UniProt Q9BV86, D180A); ITC; 25 °C, added: peptide).
The Kd of `Nc1nc2c(ncn2[C@@H]2O[C@H](COP(=O)(O)OP(=O)(O)O)[C@@H](OP(=O)(O)OP(=O)(O)O)[C@H]2O)c(=O)[nH]1` is reported as 0.4 ± 0.07 µM (gsk; binding, ITC sequential two-site fit; first site).
With `OC[C@H]1OC(O)[C@@H](O)[C@@H](O)[C@@H]1O` (stereo partly drawn) the Kd was 28.6 ± 2.22 µM (Methyl-accepting chemotaxis protein McpA ligand-binding domain; binding, biolayer interferometry; 25 °C, 1:1 binding model).
The Kd of `CC(=O)N([O-])CCCCCNC(=O)CCC(=O)N([O-])CCCCCNC(=O)CCC(=O)N([O-])CCCCCNc1ccc([N+](=O)[O-])c2nonc12.[Fe+3]` is reported as 0.034 ± 0.023 µM (yxeB; binding, Trp fluorescence quenching; pH 7.4, added: yxeB 100 nM).
The Kd of `O=C(O)CCOc1ccccc1` is reported as 640 µM (USP13 ZnF-UBD domain).
`O=C(O)CCC(=O)O` gave a Kd of 473 ± 261 µM (Methyl-accepting chemotaxis protein McpA ligand-binding domain).
With `N[C@@H](Cc1c[nH]c2ccccc12)C(=O)O` the Kd was 0.35 ± 0.31 µM (NRPS (Phaeodactylum tricornutum, UniProt B7G2G4); microscale thermophoresis; 24.1 °C).
For `O=C(O)[C@@H](O)CO`, the Kd was 11.5 ± 1.2 µM (Methyl-accepting chemotaxis protein McpA ligand-binding domain; binding, biolayer interferometry; 25 °C, 1:1 binding model).
`CSc1nc(C)c(CCC(=O)O)c(=O)[nH]1` gave a Kd of over 1000 µM (HDAC6 ZnF-UBD domain).
With `Nc1nc2c(ncn2[C@H]2C[C@H](OP(=O)(O)OP(=O)(O)O)[C@@H](COP(=O)(O)OP(=O)(O)O)O2)c(=O)[nH]1` the Kd was 0.84 µM (gsk).
For `CC(C)C[C@H](NC(=O)[C@@H]1CCCN1C(=O)[C@H](CCC(N)=O)NC(=O)[C@H](CC(N)=O)NC(=O)[C@H](Cc1c[nH]cn1)NC(=O)[C@H](Cc1ccc(OP(=O)(O)O)cc1)NC(=O)[C@@H](NC(=O)[C@@H]1CCCN1C(=O)[C@H](CC(N)=O)NC(=O)[C@H](CCC(N)=O)NC(=O)[C@@H](NC(=O)[C@H](CO)NC(=O)CNC(=O)[C@H](C)NC(=O)[C@@H]1CCCN1C(=O)c1ccc2c(c1)C(=O)OC21c2ccc(N(C)C)cc2Oc2cc(N(C)C)ccc21)C(C)C)C(C)C)C(=O)N[C@@H](CC(N)=O)C(=O)N1CCC[C@H]1C(=O)N[C@@H](CC(=O)O)C(=O)O`, the Kd was 0.523 µM (Tyrosine-protein kinase ABL1, SH2 domain (ABL1, Homo sapiens, UniProt P00519); binding).
With `Nc1nnc(-c2ccccc2O)cc1N1CC2CCC(C1)N2c1ccnc(F)c1` the Kd was 0.0058 ± 0.0011 µM (SMARCA2; binding, NanoBRET tracer displacement; permeabilized HEK293).
With `O=C(O)CNc1ncnc2ccccc12` the Kd was over 1000 µM (HDAC6 ZnF-UBD domain).
The Kd of `Nc1ncnc2c1ncn2[C@@H]1O[C@H](CO[P@](=O)(O)O[P@](=O)(O)O[P@@](=O)(O)S)[C@@H](O)[C@H]1O` is reported as 43 µM and 42 µM (GUK1 (Homo sapiens, UniProt Q16774); ITC; no ATPγS or ADP present).
For `CC(C)C[C@H](NC(=O)[C@H](Cc1ccccc1)NC(=O)[C@H](CO)NC(=O)[C@H](CC(=O)O)NC(=O)[C@H](CCC(=O)O)NC(=O)[C@@H](NC(=O)[C@H](CC(C)C)NC(=O)[C@H](CC(=O)O)NC(=O)[C@H](CO)NC(=O)[C@@H](N)CO)C(C)C)C(=O)O`, the Kd was 52 µM (SCRIB PDZ3 domain; binding, fluorescence polarization; solution; Scribble PDZ3 domain).
`O=C(O)CCc1cnccn1` gave a Kd of over 1000 µM (USP13 ZnF-UBD domain).
With `CCCCOc1ccc(CC(=O)NO)cc1` the Kd was over 30.2 µM (HDAC6; inhibitor, competition pulldown; SW620 and MV4-11 lysate; 1 h).
`O=C(O)C(=O)O` gave a Kd of 2.89 ± 0.21 µM (Methyl-accepting chemotaxis protein McpA ligand-binding domain; binding, biolayer interferometry; 25 °C, 1:1 binding model).
`O=C(Nc1ccc(O)c(O)c1)c1cc2ccccc2oc1=O` gave a Kd of 0.4 µM (Alpha-synuclein, monomer (SNCA, Homo sapiens, UniProt P37840); isothermal titration calorimetry).

For quick reference, copied from above:
The Kd of `CC(C)C[C@H](NC(=O)[C@@H](NC(=O)[C@H](CC(N)=O)NC(=O)[C@@H](N)CCCNC(=N)N)[C@@H](C)O)C(=O)N[C@@H](Cc1ccc(O)cc1)C(=O)N[C@@H](Cc1ccccc1)C(=O)N[C@@H](CO)C(=O)N[C@H](C(=O)N[C@@H](CC(=O)O)C(=O)N[C@H](C(=O)O)C(C)C)[C@@H](C)O` is reported as 2.9 µM (SCRIB PDZ3 domain; binding, fluorescence polarization; solution; Scribble PDZ3 domain).
For `O=C(O)[C@@H](O)CO`, the Kd was 11.5 ± 1.2 µM (Methyl-accepting chemotaxis protein McpA ligand-binding domain; binding, biolayer interferometry; 25 °C, 1:1 binding model).
For `CC(C)C[C@H](NC(=O)[C@H](Cc1ccccc1)NC(=O)[C@H](CO)NC(=O)[C@H](CC(=O)O)NC(=O)[C@H](CCC(=O)O)NC(=O)[C@@H](NC(=O)[C@H](CC(C)C)NC(=O)[C@H](CC(=O)O)NC(=O)[C@H](CO)NC(=O)[C@@H](N)CO)C(C)C)C(=O)O`, the Kd was 52 µM (SCRIB PDZ3 domain; binding, fluorescence polarization; solution; Scribble PDZ3 domain).
`O=C(O)CCc1cnccn1` gave a Kd of over 1000 µM (USP13 ZnF-UBD domain).
With `N[C@@H](Cc1c[nH]c2ccccc12)C(=O)O` the Kd was 0.35 ± 0.31 µM (NRPS (Phaeodactylum tricornutum, UniProt B7G2G4); microscale thermophoresis; 24.1 °C).
